{"data": "Experimental data collected from several papers", "target": "Cytochrome P450 1A2 (CYP1A2, Homo sapiens, UniProt P05177)", "Sequence (P05177 2-516, limits assumed, as in one of the studies)": "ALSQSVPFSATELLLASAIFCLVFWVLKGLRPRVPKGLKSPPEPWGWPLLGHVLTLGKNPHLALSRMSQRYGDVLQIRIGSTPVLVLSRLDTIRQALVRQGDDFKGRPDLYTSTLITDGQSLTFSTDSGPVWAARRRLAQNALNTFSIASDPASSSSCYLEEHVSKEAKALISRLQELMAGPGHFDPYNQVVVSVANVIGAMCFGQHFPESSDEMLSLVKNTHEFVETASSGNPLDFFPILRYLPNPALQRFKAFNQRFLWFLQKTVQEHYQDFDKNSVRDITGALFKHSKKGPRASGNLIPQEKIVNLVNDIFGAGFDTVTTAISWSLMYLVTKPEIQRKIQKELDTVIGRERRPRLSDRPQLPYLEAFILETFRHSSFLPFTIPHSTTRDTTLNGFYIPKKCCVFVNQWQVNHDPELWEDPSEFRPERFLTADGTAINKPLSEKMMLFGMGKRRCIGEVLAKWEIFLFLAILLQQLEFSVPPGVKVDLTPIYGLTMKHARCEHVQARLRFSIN", "note": "Compare with care: the assays were run in different laboratories. ± marks the error that the study gave."}
{"Structure (SMILES)": "C=CC(=O)N1C[C@H](Nc2ncnc3[nH]ccc23)CC[C@@H]1C", "test": "time-dependent inhibitor", "system": "human liver microsomes", "measurement": "kinact", "result": "0.00153 s⁻¹"}
{"Structure (SMILES)": "COc1cc(O)c(CC=C(C)C)c(O)c1C(=O)/C=C/c1ccc(O)cc1", "test": "enzyme activity, inhibitor", "system": "human liver microsomes", "setting": "10 µM, pH 7.4, added: phenacetin", "measurement": "inhibition", "result": "11.8 ± 1.1%"}
{"Structure (SMILES)": "COc1ccc2oc(-c3ccccc3)cc(=O)c2c1", "test": "LC-MS/MS, item: acetaminophen", "system": "human liver microsomes", "setting": "10 µM, 30 min, pH 7.4, added: 50 µM phenacetin", "measurement": "remaining activity", "result": "35.11 ± 0.12%"}
{"Structure (SMILES)": "CN(C(=O)n1cnc(-c2ccc[n+]([O-])c2)c1)C1CCCCC1", "test": "enzyme activity, inhibitor", "system": "pooled human liver microsomes", "setting": "0.1 to 30 µg/mL", "measurement": "inhibition", "result": "no effect"}
{"Structure (SMILES)": "COc1c(-c2ccccc2)oc2ccccc2c1=O", "test": "LC-MS/MS, item: acetaminophen", "system": "human liver microsomes", "setting": "10 µM, 30 min, pH 7.4, added: 50 µM phenacetin", "measurement": "remaining activity", "result": "12 ± 0.41%"}
{"Structure (SMILES)": "Cn1c(=O)c2c(ncn2C)n(C)c1=O", "system": "human, plasma", "setting": "oral, 200 mg, day 1, alone, arithmetic mean", "measurement": "Vd/F", "result": "43.1 L"}
{"Structure (SMILES)": "CC(C)=CCc1c(O)cc(O)c2c1O[C@H](c1ccc(O)cc1)CC2=O", "setting": "10 µM, pH 7.4", "measurement": "inhibition", "result": "> 88%"}
{"Structure (SMILES)": "OCc1ccc(-c2nn(Cc3ccccc3)c3ccccc23)o1", "test": "substrate", "system": "recombinant human enzyme", "measurement": "half-life", "result": "42 s"}
{"Structure (SMILES)": "Cn1c(=O)c2c(ncn2C)n(C)c1=O", "test": "item: paraxanthine", "system": "human, plasma", "setting": "oral, 50 mg caffeine, day 14, cocktail with binimetinib and encorafenib", "measurement": "AUC(0-t)", "result": "7520 ng·h/mL"}
{"Structure (SMILES)": "CC(C)Cn1cnc2c(N)nc3ccccc3c21", "test": "substrate, LC-MS", "system": "recombinant microsomes", "setting": "0.5 µM, 15 min, pH 7.4, 37 °C", "how to read": "relative to: control", "measurement": "remaining compound", "result": "~32%"}
{"Structure (SMILES)": "N#C[C@H](C[C@@H]1CCCNC1=O)NC(=O)[C@H](CC1CC1)NC(=O)c1cc2cccc(Cl)c2[nH]1", "test": "ISEF abundance scaling", "setting": "2 µM, pH 7.4", "measurement": "fraction metabolised", "result": "< 1%"}
{"Structure (SMILES)": "C=CC(=O)Nc1cc(Nc2nccc(-c3cn(C)c4ccccc34)n2)c(OCC(F)(F)F)nc1N(C)CCN(C)C", "test": "substrate depletion", "system": "recombinant human CYP", "setting": "1 µM", "measurement": "intrinsic clearance", "result": "0.45 µL/min/pmol"}
{"Structure (SMILES)": "COc1ccc2oc(-c3ccccc3)c(OC)c(=O)c2c1", "test": "LC-MS/MS, item: acetaminophen", "system": "human liver microsomes", "setting": "10 µM, 30 min, pH 7.4, added: 50 µM phenacetin", "measurement": "remaining activity", "result": "22.35 ± 0.21%"}
{"Structure (SMILES)": "CC(C)=CCc1c(O)cc2c(c1O)C(=O)C[C@@H](c1ccc(O)cc1)O2", "setting": "10 µM, pH 7.4", "measurement": "inhibition", "result": "21.4 ± 0.8%"}
{"Structure (SMILES)": "O=c1c(O)c(-c2ccccc2)oc2cc(O)ccc12", "test": "LC-MS/MS, item: acetaminophen", "system": "human liver microsomes", "setting": "10 µM, 30 min, pH 7.4, added: 50 µM phenacetin", "measurement": "remaining activity", "result": "14 ± 0.12%"}
{"Structure (SMILES)": "COc1cc(O)c(CC=C(C)C)c2c1C(=O)CC(c1ccc(O)cc1)O2 (centres unmarked)", "test": "enzyme activity, inhibitor", "system": "human liver microsomes", "setting": "1 µM, pH 7.4, added: phenacetin", "measurement": "inhibition", "result": "< 10%"}
{"Structure (SMILES)": "Cc1cc(C)c(CNC(=O)c2cc(Cl)c3c(c2C)O[C@@](C)([C@H]2CC[C@H](N(C)C)CC2)O3)c(=O)[nH]1", "system": "recombinant human enzyme", "setting": "0 and 30 min, added: enzyme 100 pmol/mL", "measurement": "CLint", "result": "0.00135 µL/min/pmol"}
{"note": "Excerpt of the above:"}
{"Structure (SMILES)": "CC(C)=CCc1c(O)cc2c(c1O)C(=O)C[C@@H](c1ccc(O)cc1)O2", "setting": "10 µM, pH 7.4", "measurement": "inhibition", "result": "21.4 ± 0.8%"}
